Earlier results as cited in several papers.
Each line is one published result; not all experiments were run side by side.

SMILES | tested on | test | system | setting | how to read | quantity | value
C[C@@H](c1nc(-c2ccc(C#N)cc2)cs1)[C@](O)(Cn1cncn1)c1cc(F)ccc1F | UGT1A9 human | inhibitor | human liver microsomes | with: propofol | – | IC50 | 19 µM
CN1CCN(c2ccc(Nc3ncc4cc5n(c4n3)C3(CCCCC3)CNC5=O)nc2)CC1 | MATE2-K | transport, inhibitor | – | – | – | IC50 | 0.071 µM
C[C@@H](c1nc(-c2ccc(C#N)cc2)cs1)[C@](O)(Cn1cncn1)c1cc(F)ccc1F | CYP2B6 | enzyme activity, inhibitor | – | with: bupropion hydroxylation | – | IC50 | 15.1 µM
Cc1ccccc1-c1cc(N2CCN(C)CC2)ncc1N(C)C(=O)C(C)(C)c1cc(C(F)(F)F)cc(C(F)(F)F)c1 | – | – | patients, plasma | oral, dose not given, netupitant-palonosetron combination, with: docetaxel 75 to 100 mg/m^2 IV | – | CL/F | 19.5 L/h
Nc1nc2c(nc(Sc3ccc(Cl)cc3)n2C2OC3COP(O)(=S)OC3C2O)c(=O)[nH]1 (stereo not shown) | PDE1A | cyclic nucleotide hydrolysis, substrate or inhibitor, isothermal titration calorimetry | – | – | – | Km or Ki | 42.4 µM
Cc1ccc(OCC(=O)N(Cc2cccs2)c2ccn[nH]2)cc1 | human CYP2C19 | enzyme activity, inhibitor | human liver microsomes | with: S-mephenytoin | – | IC50 | 1.3 µM
O=C(O)c1cccc(CN2CN(C3CCCCC3)C3(CCN(CCCC(=O)c4ccccc4)CC3)C2=O)c1 | hERG potassium channel | inhibitor | – | – | – | IC50 | 15.6 µM
C[C@@H](c1nc(-c2ccc(C#N)cc2)cs1)[C@](O)(Cn1cncn1)c1cc(F)ccc1F | BCRP (ABCG2) | transport, inhibitor | – | with: [3H]prazosin | – | IC50 | 35.3 µM
CCN(CC)CCNC(=O)c1c(C)[nH]c(/C=C2\C(=O)Nc3ccc(F)cc32)c1C | hiPSC-derived cardiomyocytes | contractility | – | concentration not given, 72 h, at effective concentration | reference: baseline | log2 fold change | 1.33
O=C(/C=C/C=C/c1ccc2c(c1)OCO2)N1CCCCC1 | MDR1 (P-glycoprotein), human | efflux transport, inhibitor | Caco-2 | with: cyclosporine A substrate | – | IC50 | 74.1 µM
C=CC(=O)N1CCC([C@@H]2CCNc3c(C(N)=O)c(-c4ccc(Oc5ccccc5)cc4)nn32)CC1 | hERG channel | ion current, inhibitor | – | – | – | IC50 | 9.11 µM
COc1cc2c(cc1OC)CN(CCc1ccc(NC(=O)c3cc(OC)c(OC)cc3NC(=O)c3cnc4ccccc4c3)cc1)CC2 | human BCRP (ABCG2) | mitoxantrone transport | BCRP-overexpressing cells | – | – | IC50 | 0.916 µM
C#Cc1ccc2ccccc2c1 | cytochrome P450 2A6 | coumarin 7-hydroxylation, inhibitor | – | – | – | IC50 | 8.8 µM
Nc1nc2cccc(-c3ccc(CN4CCS(=O)(=O)CC4)cc3)n2n1 | OATP1B1 | inhibitor | – | – | – | IC50 | 260 µM
COc1cccc2c1C(=O)c1c(O)c3c(c(O)c1C2=O)C[C@@](O)(C(=O)CO)C[C@@H]3O[C@H]1C[C@H](N)[C@H](O)[C@H](C)O1 | hiPSC-derived cardiomyocytes | – | – | 72 h, tested 0 to 100 µM | – | beating cessation concentration | 3.7 µM
O=C(O)c1ccnc(N2CC(O)(c3ccc(OCc4c(-c5c(Cl)cccc5Cl)noc4C4CC4)cc3Cl)C2)c1 | CYP3A | enzyme activity, inhibitor | – | – | – | IC50 | 6.3 µM
CCCS(=O)(=O)Nc1ccc(F)c(C(=O)c2c[nH]c3ncc(-c4ccc(Cl)cc4)cc23)c1F | P-glycoprotein | transport, inhibitor | – | assumed, tested up to 50 µM, with: digoxin | – | IC50 | 17 µM
CO[C@@H]1[C@@H]2OP(=O)(O)OC[C@H]2O[C@H]1n1c(Sc2ccc(Cl)cc2)nc2c(N)ncnc21 | PDE10 | cyclic nucleotide hydrolysis, substrate or inhibitor, isothermal titration calorimetry | – | – | – | Km or Ki | 5.84 µM
CN(C)CC=CC(=O)Nc1cc2c(Nc3ccc(F)c(Cl)c3)ncnc2cc1O[C@H]1CCOC1 | OATP1B3 | transport, inhibitor | HEK293 | with: estradiol 17β-glucuronide | – | IC50 | > 70 µM

Repeated from above:
SMILES | tested on | test | system | setting | how to read | quantity | value
CN1CCN(c2ccc(Nc3ncc4cc5n(c4n3)C3(CCCCC3)CNC5=O)nc2)CC1 | MATE2-K | transport, inhibitor | – | – | – | IC50 | 0.071 µM
C[C@@H](c1nc(-c2ccc(C#N)cc2)cs1)[C@](O)(Cn1cncn1)c1cc(F)ccc1F | CYP2B6 | enzyme activity, inhibitor | – | with: bupropion hydroxylation | – | IC50 | 15.1 µM
Cc1ccccc1-c1cc(N2CCN(C)CC2)ncc1N(C)C(=O)C(C)(C)c1cc(C(F)(F)F)cc(C(F)(F)F)c1 | – | – | patients, plasma | oral, dose not given, netupitant-palonosetron combination, with: docetaxel 75 to 100 mg/m^2 IV | – | CL/F | 19.5 L/h
